Assay results collected from several papers.
Protocols differ between the studies behind these lines. ± gives the spread as reported.
YWHAZ: 14-3-3 protein zeta/delta (YWHAZ, Homo sapiens, UniProt P63104)
Chain of UniProt P63104 (whole entry, looked up): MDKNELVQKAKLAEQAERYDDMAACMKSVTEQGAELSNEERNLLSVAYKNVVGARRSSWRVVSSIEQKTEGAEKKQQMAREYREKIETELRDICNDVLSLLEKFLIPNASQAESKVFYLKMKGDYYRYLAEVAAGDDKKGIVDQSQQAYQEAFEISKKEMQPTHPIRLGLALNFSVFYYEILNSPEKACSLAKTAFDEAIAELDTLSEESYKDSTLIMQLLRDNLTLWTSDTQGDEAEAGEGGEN
Chain of UniProt Q8NEZ5 (whole entry, looked up): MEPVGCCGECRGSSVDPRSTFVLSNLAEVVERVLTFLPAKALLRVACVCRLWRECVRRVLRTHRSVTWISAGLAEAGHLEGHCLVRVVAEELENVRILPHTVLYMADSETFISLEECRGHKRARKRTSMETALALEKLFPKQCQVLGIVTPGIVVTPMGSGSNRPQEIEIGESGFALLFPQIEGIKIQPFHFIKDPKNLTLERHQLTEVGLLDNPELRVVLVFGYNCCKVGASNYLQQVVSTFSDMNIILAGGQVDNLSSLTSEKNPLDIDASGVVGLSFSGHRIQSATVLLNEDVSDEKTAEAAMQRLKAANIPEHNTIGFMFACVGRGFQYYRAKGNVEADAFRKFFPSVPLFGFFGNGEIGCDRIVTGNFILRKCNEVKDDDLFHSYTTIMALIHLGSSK
Chain of UniProt P53350 (whole entry, looked up): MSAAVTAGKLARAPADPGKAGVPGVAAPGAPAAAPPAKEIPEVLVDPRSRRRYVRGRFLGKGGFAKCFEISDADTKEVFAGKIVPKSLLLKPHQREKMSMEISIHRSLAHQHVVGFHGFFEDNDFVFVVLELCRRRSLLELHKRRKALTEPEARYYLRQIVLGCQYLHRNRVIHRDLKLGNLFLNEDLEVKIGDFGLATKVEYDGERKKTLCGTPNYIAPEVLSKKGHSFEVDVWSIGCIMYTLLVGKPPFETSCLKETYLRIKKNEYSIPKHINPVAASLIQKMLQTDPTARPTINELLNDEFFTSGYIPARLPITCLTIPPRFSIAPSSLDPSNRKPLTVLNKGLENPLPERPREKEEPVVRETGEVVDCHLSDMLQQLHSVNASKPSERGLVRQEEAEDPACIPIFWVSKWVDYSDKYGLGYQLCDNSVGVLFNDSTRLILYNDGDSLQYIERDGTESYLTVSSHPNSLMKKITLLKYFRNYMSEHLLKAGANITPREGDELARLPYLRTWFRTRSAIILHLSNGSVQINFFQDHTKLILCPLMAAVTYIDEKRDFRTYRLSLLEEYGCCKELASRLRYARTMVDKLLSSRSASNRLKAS
Chain of UniProt Q9H093 (whole entry, looked up): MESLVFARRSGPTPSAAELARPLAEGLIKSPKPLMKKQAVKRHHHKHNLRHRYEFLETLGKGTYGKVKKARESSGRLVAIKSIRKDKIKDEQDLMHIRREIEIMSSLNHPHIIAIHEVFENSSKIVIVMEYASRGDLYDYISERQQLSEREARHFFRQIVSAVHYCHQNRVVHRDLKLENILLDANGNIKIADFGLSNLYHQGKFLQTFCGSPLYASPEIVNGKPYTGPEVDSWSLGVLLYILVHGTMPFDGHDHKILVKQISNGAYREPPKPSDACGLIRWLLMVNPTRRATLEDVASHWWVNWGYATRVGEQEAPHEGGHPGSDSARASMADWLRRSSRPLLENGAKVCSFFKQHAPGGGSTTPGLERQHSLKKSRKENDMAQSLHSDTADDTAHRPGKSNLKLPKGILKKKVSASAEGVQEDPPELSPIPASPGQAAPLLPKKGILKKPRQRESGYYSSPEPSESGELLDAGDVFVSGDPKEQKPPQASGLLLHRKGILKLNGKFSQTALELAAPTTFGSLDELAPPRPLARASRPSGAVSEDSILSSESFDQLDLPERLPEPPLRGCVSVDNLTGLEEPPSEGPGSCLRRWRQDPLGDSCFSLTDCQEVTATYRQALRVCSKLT
Chain of UniProt P46108 (whole entry, looked up): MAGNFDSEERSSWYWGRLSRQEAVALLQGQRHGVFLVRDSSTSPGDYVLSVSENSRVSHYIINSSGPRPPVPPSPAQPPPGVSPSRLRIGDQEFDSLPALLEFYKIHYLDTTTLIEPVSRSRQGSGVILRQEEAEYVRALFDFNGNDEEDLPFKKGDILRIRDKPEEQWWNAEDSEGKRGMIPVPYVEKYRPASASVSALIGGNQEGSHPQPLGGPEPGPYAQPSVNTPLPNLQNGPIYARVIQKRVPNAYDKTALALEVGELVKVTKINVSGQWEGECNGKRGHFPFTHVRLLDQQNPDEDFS
Chain of UniProt Q9H7M9 (whole entry, looked up): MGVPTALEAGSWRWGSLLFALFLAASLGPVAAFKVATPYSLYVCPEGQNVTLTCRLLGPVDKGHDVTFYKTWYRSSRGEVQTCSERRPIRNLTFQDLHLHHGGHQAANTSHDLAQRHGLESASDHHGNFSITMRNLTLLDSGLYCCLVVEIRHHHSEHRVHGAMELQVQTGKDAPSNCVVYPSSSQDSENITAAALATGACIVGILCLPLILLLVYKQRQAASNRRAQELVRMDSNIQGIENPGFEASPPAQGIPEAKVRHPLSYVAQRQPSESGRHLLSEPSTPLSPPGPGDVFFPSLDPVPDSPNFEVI
Chain of UniProt O75581 (whole entry, looked up): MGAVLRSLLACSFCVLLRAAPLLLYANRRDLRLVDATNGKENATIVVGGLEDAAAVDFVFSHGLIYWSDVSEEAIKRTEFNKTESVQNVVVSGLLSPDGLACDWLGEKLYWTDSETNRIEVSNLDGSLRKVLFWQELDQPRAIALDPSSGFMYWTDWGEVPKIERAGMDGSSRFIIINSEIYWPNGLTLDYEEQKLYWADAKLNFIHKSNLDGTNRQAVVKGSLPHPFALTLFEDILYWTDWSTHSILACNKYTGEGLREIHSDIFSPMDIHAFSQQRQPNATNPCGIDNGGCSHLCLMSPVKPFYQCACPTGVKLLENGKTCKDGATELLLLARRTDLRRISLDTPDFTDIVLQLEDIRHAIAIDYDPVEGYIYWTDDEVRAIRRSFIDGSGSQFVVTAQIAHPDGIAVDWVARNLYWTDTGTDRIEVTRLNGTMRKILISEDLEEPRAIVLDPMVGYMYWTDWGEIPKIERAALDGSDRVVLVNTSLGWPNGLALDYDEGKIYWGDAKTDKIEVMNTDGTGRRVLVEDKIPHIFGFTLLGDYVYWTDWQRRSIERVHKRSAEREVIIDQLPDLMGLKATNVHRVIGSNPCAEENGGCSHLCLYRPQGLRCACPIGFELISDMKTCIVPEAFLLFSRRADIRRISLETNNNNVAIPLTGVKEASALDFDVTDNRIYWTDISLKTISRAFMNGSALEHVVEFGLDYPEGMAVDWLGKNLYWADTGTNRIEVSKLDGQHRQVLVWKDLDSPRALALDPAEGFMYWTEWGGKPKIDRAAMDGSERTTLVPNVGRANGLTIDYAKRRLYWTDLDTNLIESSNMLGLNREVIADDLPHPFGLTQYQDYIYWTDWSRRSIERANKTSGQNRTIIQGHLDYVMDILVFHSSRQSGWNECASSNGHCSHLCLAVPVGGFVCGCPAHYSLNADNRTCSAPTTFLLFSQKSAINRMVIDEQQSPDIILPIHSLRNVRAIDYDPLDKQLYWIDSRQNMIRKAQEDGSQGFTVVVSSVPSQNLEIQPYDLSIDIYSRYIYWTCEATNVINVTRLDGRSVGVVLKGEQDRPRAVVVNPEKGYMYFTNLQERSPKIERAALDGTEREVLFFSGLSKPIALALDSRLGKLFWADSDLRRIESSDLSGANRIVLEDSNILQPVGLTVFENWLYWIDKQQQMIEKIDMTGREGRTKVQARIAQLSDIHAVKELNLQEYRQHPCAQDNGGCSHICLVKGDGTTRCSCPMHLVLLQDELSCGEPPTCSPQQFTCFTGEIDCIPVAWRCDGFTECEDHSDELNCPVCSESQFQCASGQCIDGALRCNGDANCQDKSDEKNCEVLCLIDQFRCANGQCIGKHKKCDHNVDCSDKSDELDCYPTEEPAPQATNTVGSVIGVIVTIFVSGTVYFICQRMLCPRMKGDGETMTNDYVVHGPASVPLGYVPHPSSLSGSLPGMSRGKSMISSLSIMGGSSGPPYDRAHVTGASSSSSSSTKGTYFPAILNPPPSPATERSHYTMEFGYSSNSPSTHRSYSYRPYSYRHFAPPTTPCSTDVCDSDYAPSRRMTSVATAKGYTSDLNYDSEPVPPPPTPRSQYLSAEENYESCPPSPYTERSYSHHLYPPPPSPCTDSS
Chain of UniProt P27348 (whole entry, looked up): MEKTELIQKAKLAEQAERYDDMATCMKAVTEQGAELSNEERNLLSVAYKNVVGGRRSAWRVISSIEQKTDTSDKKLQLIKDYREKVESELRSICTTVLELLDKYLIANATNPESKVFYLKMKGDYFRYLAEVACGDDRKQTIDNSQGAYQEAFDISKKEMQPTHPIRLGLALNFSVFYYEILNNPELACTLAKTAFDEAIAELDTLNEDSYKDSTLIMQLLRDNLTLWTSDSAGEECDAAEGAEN
Chain of UniProt P97287 (152-308, looked up): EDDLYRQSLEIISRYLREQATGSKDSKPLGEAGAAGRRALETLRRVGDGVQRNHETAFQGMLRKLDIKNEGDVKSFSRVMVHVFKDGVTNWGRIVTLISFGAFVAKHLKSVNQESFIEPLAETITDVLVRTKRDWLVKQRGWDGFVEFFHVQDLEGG
Chain of UniProt P29067 (whole entry, looked up): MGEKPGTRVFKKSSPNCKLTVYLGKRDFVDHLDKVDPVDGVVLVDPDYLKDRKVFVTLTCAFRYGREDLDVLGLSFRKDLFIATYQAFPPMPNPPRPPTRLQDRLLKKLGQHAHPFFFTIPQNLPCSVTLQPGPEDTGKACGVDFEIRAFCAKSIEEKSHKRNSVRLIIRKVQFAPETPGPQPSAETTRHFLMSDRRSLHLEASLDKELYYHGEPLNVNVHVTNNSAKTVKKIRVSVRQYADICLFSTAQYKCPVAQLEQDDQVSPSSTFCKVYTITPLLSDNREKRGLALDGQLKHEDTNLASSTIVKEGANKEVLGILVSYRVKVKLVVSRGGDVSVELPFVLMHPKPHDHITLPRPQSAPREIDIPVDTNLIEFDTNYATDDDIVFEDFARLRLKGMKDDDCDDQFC

SMILES | target or system | assay | system | setting | measurement | value
CC(C)C[C@H](NC(=O)[C@H](Cc1c[nH]c2ccccc12)NC(=O)CNC(=O)[C@H](Cc1ccccc1)NC(=O)[C@H](CO)NC(=O)[C@H](Cc1c[nH]c2ccccc12)NC(=O)CNC(=O)[C@@H]1CCCN1C(=O)[C@@H]1CCCN1)C(=O)N[C@@H](Cc1c[nH]cn1)C(=O)N[C@@H](C)C(=O)N1CCC[C@H]1C(=O)O | V-type immunoglobulin domain-containing suppressor of T-cell activation, IgV domain (VSIR, Homo sapiens, UniProt Q9H7M9) | binding, microscale thermophoresis | – | – | Kd | 0.036 µM
CC(=O)NC1C(O)OC(CO)C(OC2OC(CO)C(OC3OC(CO)C(O)C(O)C3O)C(O)C2O)C1O (centres unmarked) | sly (Streptococcus suis, UniProt Q55996, R465A) | binding | – | – | Kd | 0.269 µM
O=C(N[C@@H]1c2ccccc2C[C@H]1N1CCCC1)c1ccc(-c2ccnc3[nH]ccc23)nc1 | NUAK2 (Homo sapiens, UniProt Q9H093) | binding, competition with immobilised ligand | – | – | Kd | 0.078 µM
C[C@H]1NC(=O)[C@H](CCC(=O)N[C@@H](CCCCN)C(N)=O)NC(=O)[C@@H](C)NC(=O)[C@H](Cc2ccc(F)cc2)NC(=O)[C@H](Cc2c[nH]c3ccccc23)NC(=O)[C@H](CCCNC(=N)N)NC(=O)[C@H](Cc2ccc(O)cc2)NC(=O)[C@H](CCCNC(=N)N)NC1=O | cysS (Escherichia coli, UniProt P21888) | binding | – | – | Kd | 1.4 µM
C=CC[C@H]1OC(=O)CCNC(=O)[C@H](C)N(C)C(=O)[C@H]([C@@H](C)CC)N(C)C(=O)[C@H]([C@@H](C)CC)NC(=O)[C@@H]2[C@@H](C)CCN2C1=O | Platelet-derived growth factor receptor beta, extracellular domain (PDGFRB, Homo sapiens, UniProt P09619) | SPR | – | 16 °C, extracellular domain immobilised | Kd | 4.98 µM
CC[C@H](C)[C@H](NC(=O)[C@H](CC(=O)O)NC(=O)[C@H](CCCNC(=N)N)NC(=O)[C@H](C)NC(=O)c1ccc2c(c1)C(=O)OC21c2ccc(N(C)C)cc2Oc2cc(N(C)C)ccc21)C(=O)N[C@@H](Cc1c[nH]cn1)C(=O)N[C@@H](Cc1c[nH]cn1)C(=O)N[C@H](C(=O)N[C@@H](CC(=O)O)C(=O)N[C@@H](Cc1ccc(O)cc1)C(=O)N[C@@H](Cc1ccc(OP(=O)(O)O)cc1)C(=O)N[C@@H](CCCCN)C(=O)N[C@@H](CCCCN)C(=O)N[C@H](C(=O)N[C@H](C(=O)N[C@@H](CC(N)=O)C(=O)NCC(=O)N[C@@H](CCCNC(=N)N)C(=O)N[C@@H](CC(=O)O)C(=O)O)[C@@H](C)O)[C@@H](C)O)[C@@H](C)CC | Adapter molecule crk, SH2 domain (Homo sapiens, UniProt P46108) | binding | – | – | Kd | 1.11 µM
CC[C@H](C)[C@H](NC(=O)[C@@H](N)CCCCN)C(=O)N1CCC[C@H]1C(=O)N[C@@H](Cc1ccc(O)cc1)C(=O)N[C@@H](Cc1ccccc1)C(=O)N[C@@H](Cc1c[nH]cn1)C(=O)N[C@@H](C)C(=O)NCC(=O)NCC(=O)N[C@@H](CO)C(=O)N[C@@H](CCCCN)C(=O)N[C@@H](CS)C(=O)N[C@@H](CO)C(=O)N[C@H](C(=O)N[C@@H](Cc1ccc(O)cc1)C(=O)N1CCC[C@H]1C(=O)N[C@@H](CC(C)C)C(=O)N1CCC[C@H]1C(=O)N[C@@H](CCC(N)=O)C(=O)N1CCC[C@H]1C(=O)N[C@@H](CO)C(=O)O)[C@@H](C)OP(=O)(O)O | YWHAZ | ITC | – | 37 °C, one-site fit, poor fit, together with: phosphorylated PRLR peptide | Kd | 3.2 ± 0.4 µM
CC(C)C[C@H](NC(=O)[C@@H]1CCCN1C(=O)CCOCCOCCOCCOCCOCCOCCOCCOCCNC(=S)Nc1ccc2c(c1)C(=O)OC21c2ccc(O)cc2Oc2cc(O)ccc21)C(=O)N[C@@H](Cc1cncn1CCCCCCCCc1ccccc1)C(=O)N[C@@H](C)C(=O)N[C@H](C(N)=O)[C@@H](C)CP(=O)(O)O | Serine/threonine-protein kinase PLK1, polo-box domain (PLK1, Homo sapiens, UniProt P53350) | – | – | – | Kd | 0.0245 ± 0.0013 µM
Oc1ccc(-c2nc(-c3ccc(OC4CCCC4)cc3)no2)cc1 | cspC (Clostridioides difficile, UniProt Q185C0) | – | – | – | Kd | 88 ± 10 µM
CC(C)C[C@@H]1NC(=O)[C@@H]2CSSC[C@@H](C(=O)NCC(=O)O)NC(=O)[C@H](Cc3ccccc3)NC(=O)CNC(=O)[C@H](CC(N)=O)NC(=O)[C@@H]3CCCN3C(=O)CNC(=O)[C@@H]3CSSC[C@H](NC(=O)[C@H](CCCNC(=N)N)NC(=O)[C@H](CC(N)=O)NC(=O)[C@H](Cc4c[nH]cn4)NC(=O)[C@H](CCCCN)NC(=O)[C@H](C)NC(=O)CNC(=O)[C@H](Cc4c[nH]cn4)NC(=O)[C@H](C)NC(=O)[C@H](CO)NC(=O)[C@H](CCC(N)=O)NC(=O)[C@@H](NC(=O)CN)CSSC[C@H](NC(=O)CNC(=O)[C@H](C)NC1=O)C(=O)N[C@@H](C(C)C)C(=O)N3)C(=O)N[C@@H](CCCCN)C(=O)N[C@@H](CCC(N)=O)C(=O)N[C@@H](CC(=O)O)C(=O)N[C@@H](CO)C(=O)N[C@@H](CC(=O)O)C(=O)N2 | Low-density lipoprotein receptor-related protein 6, E1 domain (LRP6, Homo sapiens, UniProt O75581) | binding, SPR | – | pH 7.5 | Kd | > 1 µM
CC[C@H](C)[C@H](NC(=O)[C@@H]1CCCN1C(=O)[C@H](CO)NC(=O)[C@H](CC(C)C)NC(=O)CNC(=O)[C@H](CO)NC(=O)[C@H](Cc1ccccc1)NC(=O)[C@H](Cc1ccccc1)NC(=O)[C@H](CO)NC(=O)[C@@H](N)[C@@H](C)O)C(=O)N[C@@H](CCC(=O)O)C(=O)N[C@@H](CCC(=O)O)C(=O)N[C@@H](CC(=O)O)C(=O)N[C@@H](C)C(=O)N[C@@H](Cc1c[nH]cn1)C(=O)O | Serine/threonine-protein phosphatase 2A 56 kDa regulatory subunit alpha isoform (Homo sapiens, UniProt Q15172) | binding, bead-based Langmuir fit | – | pH 7.5 | Kd | 0.24 µM
CC[C@@H](C)[C@@H](NC(=O)[C@@H](CCC(N)=O)NC(=O)[C@H](NC(=O)[C@H]1CCCN1C(=O)[C@H](NC(=O)[C@@H](CO)NC(=O)[C@@H](Cc1ccccc1)NC(=O)[C@H]1CCCN1C(=O)[C@@H](CCC(N)=O)NC(=O)[C@H](N)CCSC)[C@H](C)CC)C(C)C)C(=O)N[C@@H](C(=O)N[C@H](CC(C)C)C(=O)N[C@H](CCC(N)=O)C(=O)NCC(=O)N[C@H](CO)C(=O)N[C@H](CCCNC(=N)N)C(=O)N[C@H](CCCNC(=N)N)C(=O)N[C@H](CCCNC(=N)N)C(=O)N[C@H](CCC(N)=O)C(=O)NCC(=O)N[C@H](CCCNC(=N)N)C(N)=O)[C@H](C)O | Kcnma1 (Mus musculus, UniProt Q08460) | ion current, blocker, inside-out patch clamp | Xenopus oocytes | +140 mV, together with: 10 µM cytosolic Ca2+ | Kd | 2.4 µM
CC(=O)N[C@@H](CCC(=O)O)C(=O)N[C@@H](CCC(=O)O)C(=O)N[C@@H](CCC(=O)O)C(=O)N[C@@H](Cc1c[nH]c2ccccc12)C(=O)N[C@@H](C)C(=O)N[C@@H](CCCNC(=N)N)C(=O)N[C@@H](CCC(=O)O)C(=O)N[C@@H](CC(C)(C)C)C(=O)NCC(=O)N[C@@H](C)C(=O)N[C@@H](CCC(N)=O)C(=O)N[C@@H](CC(C)C)C(=O)N[C@@H](CCCNC(=N)N)C(=O)N[C@@H](CCCNC(=N)N)C(=O)N[C@@H](C)C(=O)N[C@@H](C)C(=O)N[C@@H](CC(=O)O)C(=O)N[C@@H](CC(=O)O)C(=O)N[C@@H](CC(C)C)C(=O)N[C@@H](CC(N)=O)C(=O)N[C@@H](C)C(=O)N[C@@H](CCC(N)=O)C(=O)N[C@@H](Cc1ccc(O)cc1)C(=O)N[C@@H](CCC(=O)O)C(=O)N[C@@H](CCCNC(=N)N)C(=O)N[C@@H](CCCNC(=N)N)C(=O)N[C@@H](CCCNC(=N)N)C(N)=O | Induced myeloid leukemia cell differentiation protein Mcl-1 homolog, residues 152-308 (Mus musculus, UniProt P97287) | binding, SPR | – | 0.2% DMSO | Kd | 0.007 µM
CC(=O)N[C@@H](CCCNC(=N)N)C(=O)N[C@H](C(=O)N1CCC[C@H]1C(=O)N[C@@H](COP(=O)(O)O)C(=O)N[C@@H](CC(C)C)C(=O)N1CCC[C@H]1C(=O)N[C@H](C)C(=O)N1CCC[C@H]1C(c1ccccc1)c1ccccc1)[C@@H](C)O | YWHAZ | binding, ITC | – | – | Kd | 3.04 µM
O=C1NC2(CC2)COc2ncc(F)cc2[C@H]2COCCN2c2ccn3ncc1c3n2 | – | – | Sprague-Dawley rat, female, liver | oral, 5 mg/kg/day, 4 weeks, end of treatment | organ-to-body weight ratio | 3.54 ± 0.195%
CC(C)C[C@H](NC(=O)[C@H](CS)NC(=O)[C@H](CC(=O)O)NC(=O)[C@H](C)NC(=O)[C@H](CO)NC(=O)[C@H](Cc1c[nH]cn1)NC(=O)[C@H](CC(=O)O)NC(=O)[C@H](CO)NC(=O)[C@@H](NC(=O)CNC(=O)[C@H](CC(=O)O)NC(=O)[C@H](CC(=O)O)NC(=O)[C@H](CC(C)C)NC(=O)[C@@H](N)CC(=O)O)C(C)C)C(=O)N[C@@H](CC(=O)O)C(=O)N[C@@H](CCC(N)=O)C(=O)N[C@@H](CC(=O)O)C(=O)N[C@@H](CO)C(=O)O | Beta-arrestin-2 (Arrb2, Rattus norvegicus, UniProt P29067) | isothermal titration calorimetry | – | pH 8.0, 298 K | Kd | 0.98 ± 0.06 µM
CC(C)C[C@H](NC(=O)[C@H](C)NC(=O)[C@H](C)NC(=O)[C@H](CC(=O)O)NC(=O)[C@H](CC(=O)O)NC(=O)[C@H](C)NC(=O)[C@@H]1CCCN1C(=O)[C@H](CCCCN)NC(=O)CNC(=O)[C@@H]1CCCN1C(=O)[C@@H]1CCCN1C(=O)[C@@H]1CCCN1C(=O)[C@H](CCC(=O)O)NC(=O)CN)C(=O)N[C@H](C(=O)O)C(C)C | F-box only protein 22 (Homo sapiens, UniProt Q8NEZ5) | binding, SPR | – | – | Kd | 20.5 µM
CC(CO)C1CN2C(=O)[C@H](CC(=O)O)NC(=O)CC(CC3CC3)NC(=O)[C@H](CCC(=O)O)NC(=O)CNC(=O)[C@H]([C@@H](C)O)NC(=O)[C@H](CCC(=O)O)NC(=O)[C@@H]2C1(F)F (some centres unmarked) | KEAP1 (Homo sapiens, UniProt Q14145) | binding, MST | – | – | Kd | ~0.007 µM
CC(C)C[C@H](NC(=O)[C@H](CCCNC(=N)N)NC(=O)[C@H](CC(C)C)NC(=O)[C@H](CO)NC(=S)Nc1ccc2c(c1)C(=O)OC21c2ccc(O)cc2Oc2cc(O)ccc21)C(=O)N[C@@H](CCCCN)C(=O)N[C@@H](CS)C(=O)NCC(=O)N[C@@H](CCP(=O)(O)O)C(=O)NCC(=O)N1CCC[C@H]1C(=O)N[C@H](C(=O)N[C@@H](Cc1c[nH]c2ccccc12)C(=O)N[C@@H](CC(C)C)C(=O)N[C@H](C(=O)N1CCC[C@H]1C(=O)N[C@@H](CCCNC(=N)N)C(=O)O)C(C)C)C(C)C | 14-3-3 protein theta (Homo sapiens, UniProt P27348) | binding, fluorescence anisotropy | – | pH 7.5, FITC-labelled phosphopeptide titration | Kd | 53.4 µM
CC(=O)N[C@@H](CCCNC(=N)N)C(=O)N[C@H](C(=O)N1CCC[C@H]1C(=O)N[C@@H](COP(=O)(O)O)C(=O)N[C@@H](CC(C)C)C(=O)N1CCC[C@H]1C(=O)N[C@H](C(=O)N1CCC[C@H]1C(c1ccccc1)c1ccccc1)C(C)C)[C@@H](C)O | YWHAZ | isothermal titration calorimetry | – | second duplicate | Kd | 2.4 µM

Repeated from above:
SMILES | target or system | assay | system | setting | measurement | value
CC(CO)C1CN2C(=O)[C@H](CC(=O)O)NC(=O)CC(CC3CC3)NC(=O)[C@H](CCC(=O)O)NC(=O)CNC(=O)[C@H]([C@@H](C)O)NC(=O)[C@H](CCC(=O)O)NC(=O)[C@@H]2C1(F)F (some centres unmarked) | KEAP1 (Homo sapiens, UniProt Q14145) | binding, MST | – | – | Kd | ~0.007 µM
CC[C@H](C)[C@H](NC(=O)[C@@H](N)CCCCN)C(=O)N1CCC[C@H]1C(=O)N[C@@H](Cc1ccc(O)cc1)C(=O)N[C@@H](Cc1ccccc1)C(=O)N[C@@H](Cc1c[nH]cn1)C(=O)N[C@@H](C)C(=O)NCC(=O)NCC(=O)N[C@@H](CO)C(=O)N[C@@H](CCCCN)C(=O)N[C@@H](CS)C(=O)N[C@@H](CO)C(=O)N[C@H](C(=O)N[C@@H](Cc1ccc(O)cc1)C(=O)N1CCC[C@H]1C(=O)N[C@@H](CC(C)C)C(=O)N1CCC[C@H]1C(=O)N[C@@H](CCC(N)=O)C(=O)N1CCC[C@H]1C(=O)N[C@@H](CO)C(=O)O)[C@@H](C)OP(=O)(O)O | YWHAZ | ITC | – | 37 °C, one-site fit, poor fit, together with: phosphorylated PRLR peptide | Kd | 3.2 ± 0.4 µM
C=CC[C@H]1OC(=O)CCNC(=O)[C@H](C)N(C)C(=O)[C@H]([C@@H](C)CC)N(C)C(=O)[C@H]([C@@H](C)CC)NC(=O)[C@@H]2[C@@H](C)CCN2C1=O | Platelet-derived growth factor receptor beta, extracellular domain (PDGFRB, Homo sapiens, UniProt P09619) | SPR | – | 16 °C, extracellular domain immobilised | Kd | 4.98 µM
